Results of several laboratories.
Lines come from different studies, so protocols differ. Several values in a cell are separate wells, animals, samples, runs or records. Numbers after ± are the reported error.

| Molecule | target or system | assay | test system | setting | scale | measurement | value |
| --- | --- | --- | --- | --- | --- | --- | --- |
| O=C(NO)c1ccc(O)c(O)c1 | ARPE-19, uninfected | cytotoxicity, CellTiter-Glo |  | 14 d |  | TD50 | 276 ± 7.8 µM |
| CC(C)OC(=O)[C@H](C)NP(=O)(OCCOCn1cnc2c(=O)[nH]c(N)nc21)Oc1ccccc1 (stereo partly drawn) | HEL | altered cell morphology |  |  |  | minimal cytotoxic concentration | > 50 µM |
| C/C=C(/C)C(=O)O[C@H]1C(C)=C2[C@H]([C@@H]1OC(=O)CCCCCCC)[C@@](C)(OC(C)=O)C[C@H](OC(=O)CCCCCCCCCCCNC(=O)C[C@H](N)C(=O)N[C@@H](CCC(=O)N[C@@H](CCC(=O)N[C@@H](CCC(=O)N[C@@H](CCC(=O)O)C(=O)O)C(=O)O)C(=O)O)C(=O)O)[C@@]1(O)[C@H]2OC(=O)[C@@]1(C)O | TSU versus LNCaP | clonal survival |  | 72 h | baseline: IC50 TSU over LNCaP | selectivity ratio | 57 fold and ~60 fold |
| CC(C)N(N=O)C(C)C | HepaRG, 3D spheroids |  |  | concentration not given, 24 h, highest tested concentration, hEGF 5 days | baseline: vehicle | γH2AX fold increase | 1.2 to 1.3 fold |
| CN[C@H](C(=O)N[C@H](C(=O)N(C)[C@H](c1noc(=O)[nH]1)C(C)C)C(C)C)C(C)(C)c1ccccc1 | HT-29 | cell growth or viability, MTT |  |  |  | IC50 | > 10000 nM |
| CN[C@@](C)(C[18F])C(=O)O |  |  | SCID mouse DU-145 xenograft, brain | 15 min, post injection |  | tissue uptake | 0.4 ± 0.2 %ID/g |
| CCN(CC)N=O | HepaRG, 3D spheroids |  |  | highest tested concentration, 24 h, plus 5 days, added: hEGF 100 ng/mL | baseline: vehicle | γH2A.X fold increase | 2 to 2.3 fold |
| CCc1cccc(C)c1N(C(=O)CCl)C(C)COC (stereo not drawn) | HEK293 | neutral red uptake |  | 24 h |  | LD50 | 1.42 µg/mL |
| CO[C@]1(COP(=O)(N[C@@H](C)C(=O)OCc2ccccc2)Oc2ccccc2)O[C@@H](n2ccc(N)nc2=O)C(F)(F)[C@@H]1O (stereo partly drawn) | Vero | cell morphology, microscopy |  | 5 (unit not given) |  | minimum cytotoxic concentration | ≥ 100 µM |
| C=C(C[C@H](N)C(=O)O)C(N)=O | MCF7 |  |  | 72 h | baseline: vehicle | concentration increasing cytotoxicity | 320 µM |
| C#CC[C@H](NCc1ccccc1)C(=O)N[C@@H](Cc1c[nH]c2ccccc12)C(=O)NCc1ccc(-c2ccccc2)cc1 | Vero | cell morphology, microscopy |  | 5 (unit not given) |  | minimum cytotoxic concentration | ≥ 100 µM |
| CC[C@@]12SS[C@]3(C(=O)N1C)[C@@H](O)[C@]1(C45c6ccccc6N[C@@H]4N4C(=O)[C@@]6(CC)SS[C@@]4(C(=O)N6C)[C@H]5O)c4ccccc4N[C@@H]1N3C2=O (stereo partly drawn) | NCI-H460 | cell growth or viability, SRB |  |  |  | IC50 | 300 nM |
| CCCCN(CCCC)N=O | HepaRG, 3D spheroids | flow cytometry micronucleus |  | highest tested concentration, 24 h, plus 6 days hEGF | baseline: vehicle | relative survival | 58% |
| CC(C)C[C@H](NC(=O)[C@H](C)NC(=O)CNC(=O)[C@@H](NC(=O)[C@H](CC(C)C)NC(=O)[C@H](CCCCN)NC(=O)[C@H](CCCCN)NC(=O)[C@H](CC(C)C)NC(=O)[C@H](CC(C)C)NC(=O)[C@H](CCCCN)NC(=O)[C@H](CC(C)C)NC(=O)[C@H](CC(C)C)NC(=O)[C@@H](N)CCCCN)C(C)C)C(=O)NCC(N)=O | human erythrocytes |  |  | 1 h, 37 °C, hemolysis ≤5% |  | minimal hemolytic concentration | 32 µM |
| CN1C(=O)[C@]23SS[C@@]1(C)C(=O)N2[C@H]1Nc2ccccc2[C@@]1([C@@]12c4ccccc4N[C@@H]1N1C(=O)[C@@]4(C)SS[C@]1(C(=O)N4C)[C@H]2O)[C@@H]3O | MDA-MB-435 | cell growth or viability, SRB |  |  |  | IC50 | 70 nM |
| C=C(C[C@H](N)C(=O)O)C(=O)NCc1ccc([N+](=O)[O-])cc1 | MCF7 |  |  | 72 h | baseline: vehicle | concentration increasing cytotoxicity | 320 µM |
| COc1cc(CN2CC3(CCN(S(=O)(=O)c4cn(C)cn4)CC3)c3c(n(C)c4cc(OC)ccc34)[C@H]2CO)cc(OC)c1 | HEp-2, uninfected |  |  | original sample |  | CC50 | > 100 µM |
| CC[C@@]12SS[C@]3(C(=O)N1C)[C@@H](O)C1(C45c6ccccc6N[C@@H]4N4C(=O)[C@]6([C@@H](C)O)SS[C@]4(C(=O)N6C)[C@H]5O)c4ccccc4N[C@@H]1N3C2=O (stereo partly drawn) | NCI-H460 | cell growth or viability, SRB |  |  |  | IC50 | 520 nM |

| Molecule | target or system | assay | test system | setting | scale | measurement | value |
| --- | --- | --- | --- | --- | --- | --- | --- |
| Cn1c(N)nc2ncc(-c3ccccc3)cc21 | rat primary midbrain neurons | selective dopaminergic neurotoxicity, refers to: TH+ over MAP2+ neurons |  | 24 h |  | threshold concentration | 1 µM |
| CC(O)[C@@]12SS[C@]3(C(=O)N1C)[C@@H](O)[C@]1([C@@]45c6ccccc6N[C@@H]4N4C(=O)[C@]6(C)SS[C@]4(C(=O)N6C)[C@H]5O)c4ccccc4N[C@@H]1N3C2=O (stereo partly drawn) | SF-268 | cell growth or viability, SRB |  |  |  | IC50 | 370 nM |
| C#CC[C@H](NCc1ccc(-c2ccccc2)cc1)C(=O)N[C@@H](Cc1c[nH]c2ccccc12)C(=O)NC(C)(C)C | Vero | cell morphology, microscopy |  | 5 (unit not given) |  | minimum cytotoxic concentration | 20 µM |
| CCCC[C@H](NC(=O)[C@H](CCN)NC(=O)[C@H](CCN)NC(=O)[C@H](CCCC)NC(=O)[C@H](Cc1c[nH]c2ccccc12)NC(=O)[C@H](CCN)NC(=O)[C@@H](N)CCCC)C(N)=O | human erythrocytes |  |  | up to 100 µM, 4 h, 37 °C | baseline: Triton X-100 | hemolysis | < 10% |
| COc1cccc2c1C(=O)c1c(O)c3c(c(O)c1C2=O)C[C@@](O)(C(=O)CO)C[C@@H]3O[C@H]1C[C@H](N)[C@H](O)[C@H](C)O1 | MCF7/ADR | flow cytometry | isolated mitochondria | 10 µg/mL equivalent |  | mitochondrial distribution | < 5% |
| CCN(N=O)C(C)C | HepaRG 2D | cell viability |  | concentration not given, 24 h | baseline: vehicle | ATP level | 76.5% |
| GRKKRRQRRRPQSWQDLKDH | HeLa | MTT | peptide | up to 100 µM, 24 h |  | cytotoxicity | not toxic |
| COc1cc(/C=C/C(=O)OCCc2ccc(O)cc2)ccc1O | Hepa-1c1c7 | cytotoxicity, crystal violet |  | 48 h |  | IC50 | > 20000 nM |
| CC[C@H](C)[C@H](NC(=O)[C@H](C)NC(=O)[C@H](CCCCN)NC(=O)[C@H](CC(C)C)NC(=O)[C@H](C)NC(=O)[C@@H](NC(=O)[C@H](Cc1cnc[nH]1)NC(=O)[C@H](CC(C)C)NC(=O)[C@@H](NC(=O)[C@@H](NC(=O)[C@H](CCCCN)NC(=O)[C@H](CCCCN)NC(=O)[C@H](C)NC(=O)[C@H](CO)NC(=O)[C@H](CCCCN)NC(=O)[C@H](Cc1ccccc1)NC(=O)[C@@H](NC(=O)[C@H](CCCCN)NC(=O)[C@H](CC(C)C)NC(=O)[C@H](Cc1ccccc1)NC(=O)[C@H](CO)NC(=O)[C@H](CCCCN)NC(=O)[C@H](Cc1c[nH]c2ccccc12)NC(=O)[C@H](CCCCN)NC(C)=O)[C@@H](C)O)[C@@H](C)O)C(C)C)[C@@H](C)O)C(=O)N[C@@H](CO)C(=O)N[C@@H](CO)C(N)=O | human erythrocytes |  |  | 1 h, 37 °C |  | minimal haemolytic concentration | 250 µg/mL |
| O=NN1CCN(C2CCCC2)CC1 | HepaRG, 3D spheroids | flow cytometry micronucleus |  | highest tested concentration, 24 h, plus 6 days hEGF | baseline: vehicle | relative survival | 73.7% |
| COC(=O)[C@H](NP(=O)(OCCOCn1cnc2c(=O)[nH]c(N)nc21)Oc1cccc2ccccc12)C(C)C (stereo partly drawn) | HEL | altered cell morphology |  |  |  | minimal cytotoxic concentration | > 100 µM |
| CC(C)C[C@@H](NC(=O)[C@H](C)NC(=O)CNC(=O)[C@@H](NC=O)C(C)C)C(=O)N[C@@H](C)C(=O)N[C@@H](C(=O)N[C@H](C(=O)N[C@@H](C(=O)N[C@@H](Cc1c[nH]c2ccccc12)C(=O)N[C@H](CC(C)C)C(=O)N[C@@H](Cc1c[nH]c2ccccc12)C(=O)N[C@H](CC(C)C)C(=O)N[C@@H](Cc1c[nH]c2ccccc12)C(=O)N[C@H](CC(C)C)C(=O)N[C@@H](Cc1c[nH]c2ccccc12)C(=O)NCCO)C(C)C)C(C)C)C(C)C | rat erythrocytes |  |  | concentration not given, 30 min, pH 7.4, 37 °C, added: Escherichia coli K-235 LPS, 1:5 w/w |  | hemolysis | no inhibition |
| Nc1nc2c(ncn2COCCOP(=O)(NC(Cc2ccccc2)C(=O)OCc2ccccc2)Oc2ccccc2)c(=O)[nH]1 (stereo not drawn) | HEL | altered cell morphology |  |  |  | minimal cytotoxic concentration | > 50 µM |
| Nc1ccc2c(n1)[nH]c1ccccc12 | rat primary midbrain neurons | selective dopaminergic neurotoxicity, refers to: TH+ over MAP2+ neurons |  | 24 h |  | threshold concentration | 1 µM |
| CC(C)[C@H](NP(=O)(OCCOCn1cnc2c(=O)[nH]c(N)nc21)Oc1ccccc1)C(=O)OCc1ccccc1 (stereo partly drawn) | HEL | altered cell morphology |  |  |  | minimal cytotoxic concentration | > 100 µM |
| CC[C@H](C)[C@H](NC(=O)[C@H](CCCCN)NC(=O)[C@H](CO)NC(=O)CNC(=O)[C@H](CC(C)C)NC(=O)[C@@H](N)Cc1c[nH]c2ccccc12)C(=O)N[C@@H](CCCCN)C(=O)N[C@@H](C)C(=O)N[C@@H](C)C(=O)N[C@@H](CCCCN)C(=O)N[C@@H](CCSC)C(=O)N[C@@H](CCCCN)C(=O)N[C@H](C(=O)NCC(=O)N[C@@H](CCSC)C(=O)N[C@@H](Cc1c[nH]c2ccccc12)C(=O)NCC(=O)N[C@@H](C)C(=O)N[C@H](C(=O)NCC(=O)N[C@@H](CC(C)C)C(=O)N[C@@H](CCCNC(=N)N)C(=O)N[C@@H](Cc1c[nH]cn1)C(=O)N[C@@H](CC(N)=O)C(=O)O)C(C)C)C(C)C | rat erythrocytes |  |  | 200 µM, 1 h, 37 °C |  | hemolysis | < 5% |
| CC(C)C[C@H](NC(=O)[C@H](C)NC(=O)CNC(=O)[C@@H](NC(=O)[C@@H](NC(=O)[C@H](CCCCN)NC(=O)[C@H](CCCCN)NC(=O)[C@@H](NC(=O)[C@H](CC(C)C)NC(=O)[C@H](CCCCN)NC(=O)[C@H](CC(C)C)NC(=O)[C@H](CC(C)C)NC(=O)[C@@H](N)CCCCN)C(C)C)C(C)C)C(C)C)C(=O)NCC(N)=O | human erythrocytes |  |  | 1 h, 37 °C, hemolysis ≤5% |  | minimal hemolytic concentration | > 250 µM |
| pneumocandin K | human erythrocytes |  |  | 56.2 µg/mL, 1 h, 37 °C | baseline: Tween 20 | hemolysis | > 40% |

For quick reference, copied from above:
| Molecule | target or system | assay | test system | setting | scale | measurement | value |
| --- | --- | --- | --- | --- | --- | --- | --- |
| Nc1ccc2c(n1)[nH]c1ccccc12 | rat primary midbrain neurons | selective dopaminergic neurotoxicity, refers to: TH+ over MAP2+ neurons |  | 24 h |  | threshold concentration | 1 µM |
| CC(C)[C@H](NP(=O)(OCCOCn1cnc2c(=O)[nH]c(N)nc21)Oc1ccccc1)C(=O)OCc1ccccc1 (stereo partly drawn) | HEL | altered cell morphology |  |  |  | minimal cytotoxic concentration | > 100 µM |
| CC[C@H](C)[C@H](NC(=O)[C@H](CCCCN)NC(=O)[C@H](CO)NC(=O)CNC(=O)[C@H](CC(C)C)NC(=O)[C@@H](N)Cc1c[nH]c2ccccc12)C(=O)N[C@@H](CCCCN)C(=O)N[C@@H](C)C(=O)N[C@@H](C)C(=O)N[C@@H](CCCCN)C(=O)N[C@@H](CCSC)C(=O)N[C@@H](CCCCN)C(=O)N[C@H](C(=O)NCC(=O)N[C@@H](CCSC)C(=O)N[C@@H](Cc1c[nH]c2ccccc12)C(=O)NCC(=O)N[C@@H](C)C(=O)N[C@H](C(=O)NCC(=O)N[C@@H](CC(C)C)C(=O)N[C@@H](CCCNC(=N)N)C(=O)N[C@@H](Cc1c[nH]cn1)C(=O)N[C@@H](CC(N)=O)C(=O)O)C(C)C)C(C)C | rat erythrocytes |  |  | 200 µM, 1 h, 37 °C |  | hemolysis | < 5% |
